Measured values collected from several papers.
Compare with care: the assays were run in different laboratories. Several values in a cell are separate wells, animals, samples, runs or records. ± gives the spread as reported.
Nuclear receptor subfamily 2 group C member 2 ligand-binding domain: Nuclear receptor subfamily 2 group C member 2, ligand-binding domain (Homo sapiens, UniProt P49116)
UniProt P51575, sequence (whole entry, unmodified, looked up): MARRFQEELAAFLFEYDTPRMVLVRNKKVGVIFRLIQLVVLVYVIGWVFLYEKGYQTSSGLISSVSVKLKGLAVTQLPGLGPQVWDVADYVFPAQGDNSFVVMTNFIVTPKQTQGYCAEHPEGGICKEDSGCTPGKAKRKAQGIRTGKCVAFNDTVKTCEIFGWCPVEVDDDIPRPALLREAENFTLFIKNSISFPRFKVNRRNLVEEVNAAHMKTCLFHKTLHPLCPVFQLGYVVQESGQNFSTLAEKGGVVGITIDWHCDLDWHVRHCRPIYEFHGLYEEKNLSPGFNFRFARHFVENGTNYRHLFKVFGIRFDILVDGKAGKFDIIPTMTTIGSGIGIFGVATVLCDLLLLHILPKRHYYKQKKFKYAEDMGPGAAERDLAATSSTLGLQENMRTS
UniProt Q9BQG0, sequence (whole entry, looked up): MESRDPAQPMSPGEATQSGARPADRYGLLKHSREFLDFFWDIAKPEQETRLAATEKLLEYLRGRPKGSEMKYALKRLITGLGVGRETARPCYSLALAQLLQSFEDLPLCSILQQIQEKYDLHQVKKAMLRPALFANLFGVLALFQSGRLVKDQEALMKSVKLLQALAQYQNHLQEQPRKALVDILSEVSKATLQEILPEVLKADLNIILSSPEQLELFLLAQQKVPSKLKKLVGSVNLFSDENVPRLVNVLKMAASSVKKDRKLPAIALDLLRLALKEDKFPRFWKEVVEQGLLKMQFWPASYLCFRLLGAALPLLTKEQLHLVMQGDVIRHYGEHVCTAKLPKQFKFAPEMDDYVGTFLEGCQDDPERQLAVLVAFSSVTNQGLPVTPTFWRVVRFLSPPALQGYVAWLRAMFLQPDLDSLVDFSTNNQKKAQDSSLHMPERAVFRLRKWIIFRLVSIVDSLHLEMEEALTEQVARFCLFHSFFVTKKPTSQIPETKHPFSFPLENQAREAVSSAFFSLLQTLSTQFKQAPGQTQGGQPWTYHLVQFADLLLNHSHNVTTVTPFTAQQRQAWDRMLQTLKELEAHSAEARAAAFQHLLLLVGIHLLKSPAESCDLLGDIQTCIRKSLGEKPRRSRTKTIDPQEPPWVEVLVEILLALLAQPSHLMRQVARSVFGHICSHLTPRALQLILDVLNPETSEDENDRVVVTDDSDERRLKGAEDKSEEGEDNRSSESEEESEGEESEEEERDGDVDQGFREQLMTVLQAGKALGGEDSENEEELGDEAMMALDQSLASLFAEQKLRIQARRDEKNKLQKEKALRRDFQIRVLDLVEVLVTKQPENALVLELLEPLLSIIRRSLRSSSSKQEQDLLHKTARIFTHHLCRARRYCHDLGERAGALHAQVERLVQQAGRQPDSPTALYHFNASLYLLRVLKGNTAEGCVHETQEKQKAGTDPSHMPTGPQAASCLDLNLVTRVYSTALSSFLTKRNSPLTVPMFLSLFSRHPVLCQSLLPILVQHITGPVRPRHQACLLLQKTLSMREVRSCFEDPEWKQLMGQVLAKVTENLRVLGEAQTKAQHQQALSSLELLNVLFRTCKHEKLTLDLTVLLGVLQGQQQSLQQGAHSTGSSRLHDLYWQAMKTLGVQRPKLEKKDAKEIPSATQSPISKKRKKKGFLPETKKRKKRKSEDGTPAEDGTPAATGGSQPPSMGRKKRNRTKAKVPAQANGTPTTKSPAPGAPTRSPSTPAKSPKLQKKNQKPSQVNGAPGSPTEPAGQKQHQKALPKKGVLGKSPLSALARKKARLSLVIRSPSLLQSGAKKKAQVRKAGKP
UniProt O14980, sequence (whole entry, looked up): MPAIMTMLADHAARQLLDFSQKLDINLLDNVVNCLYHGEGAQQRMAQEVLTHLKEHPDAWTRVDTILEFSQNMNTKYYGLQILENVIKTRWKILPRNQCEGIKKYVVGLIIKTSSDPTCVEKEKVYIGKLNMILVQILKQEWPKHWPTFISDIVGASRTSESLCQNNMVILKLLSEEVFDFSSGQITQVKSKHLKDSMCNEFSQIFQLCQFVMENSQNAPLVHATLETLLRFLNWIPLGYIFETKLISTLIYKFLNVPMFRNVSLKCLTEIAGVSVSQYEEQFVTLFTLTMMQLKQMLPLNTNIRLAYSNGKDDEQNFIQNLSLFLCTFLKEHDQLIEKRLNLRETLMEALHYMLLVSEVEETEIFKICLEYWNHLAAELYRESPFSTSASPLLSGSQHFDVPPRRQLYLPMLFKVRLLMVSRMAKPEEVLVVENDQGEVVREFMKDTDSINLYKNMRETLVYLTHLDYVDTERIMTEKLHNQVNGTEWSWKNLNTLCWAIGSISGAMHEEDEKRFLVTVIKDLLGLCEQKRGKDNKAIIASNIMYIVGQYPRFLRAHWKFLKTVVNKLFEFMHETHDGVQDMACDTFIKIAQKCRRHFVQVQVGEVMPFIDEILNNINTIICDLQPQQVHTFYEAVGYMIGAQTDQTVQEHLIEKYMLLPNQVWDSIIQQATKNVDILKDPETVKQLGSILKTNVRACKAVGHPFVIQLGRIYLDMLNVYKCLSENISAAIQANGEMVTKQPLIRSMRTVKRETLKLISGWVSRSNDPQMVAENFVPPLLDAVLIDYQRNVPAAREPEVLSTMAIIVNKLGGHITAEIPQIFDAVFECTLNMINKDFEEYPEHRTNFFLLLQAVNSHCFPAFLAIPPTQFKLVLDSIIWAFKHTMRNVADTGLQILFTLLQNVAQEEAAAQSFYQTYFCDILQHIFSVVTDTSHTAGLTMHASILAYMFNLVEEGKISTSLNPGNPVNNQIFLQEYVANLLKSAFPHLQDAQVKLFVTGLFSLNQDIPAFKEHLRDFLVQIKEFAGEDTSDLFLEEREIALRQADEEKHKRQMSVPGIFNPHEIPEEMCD
UniProt P49116, sequence (whole entry, looked up): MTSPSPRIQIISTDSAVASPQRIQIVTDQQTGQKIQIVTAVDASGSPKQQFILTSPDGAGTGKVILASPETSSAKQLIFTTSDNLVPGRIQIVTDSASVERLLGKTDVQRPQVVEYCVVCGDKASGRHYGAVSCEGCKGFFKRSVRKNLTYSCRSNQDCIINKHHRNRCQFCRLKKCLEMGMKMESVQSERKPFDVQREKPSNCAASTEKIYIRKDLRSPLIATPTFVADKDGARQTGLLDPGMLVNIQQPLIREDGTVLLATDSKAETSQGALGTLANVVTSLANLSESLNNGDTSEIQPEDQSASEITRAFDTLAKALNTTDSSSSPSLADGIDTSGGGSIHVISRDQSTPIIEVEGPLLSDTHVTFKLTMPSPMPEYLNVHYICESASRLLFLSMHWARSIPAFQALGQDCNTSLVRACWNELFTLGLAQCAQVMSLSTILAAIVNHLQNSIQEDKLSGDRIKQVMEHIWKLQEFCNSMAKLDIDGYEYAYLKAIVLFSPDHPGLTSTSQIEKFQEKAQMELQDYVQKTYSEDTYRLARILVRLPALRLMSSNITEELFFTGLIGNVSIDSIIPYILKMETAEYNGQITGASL
UniProt P27361, sequence (whole entry, looked up): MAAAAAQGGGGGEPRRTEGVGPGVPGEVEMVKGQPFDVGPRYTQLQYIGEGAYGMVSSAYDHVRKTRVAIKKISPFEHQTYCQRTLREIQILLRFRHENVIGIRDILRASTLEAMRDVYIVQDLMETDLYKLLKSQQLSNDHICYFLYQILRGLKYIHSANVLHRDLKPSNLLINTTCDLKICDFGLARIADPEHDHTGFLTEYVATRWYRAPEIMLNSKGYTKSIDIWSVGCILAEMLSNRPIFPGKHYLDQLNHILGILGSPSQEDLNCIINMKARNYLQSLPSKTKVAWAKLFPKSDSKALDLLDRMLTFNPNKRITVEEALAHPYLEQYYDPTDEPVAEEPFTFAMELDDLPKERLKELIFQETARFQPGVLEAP
UniProt Q62351, sequence (whole entry, looked up): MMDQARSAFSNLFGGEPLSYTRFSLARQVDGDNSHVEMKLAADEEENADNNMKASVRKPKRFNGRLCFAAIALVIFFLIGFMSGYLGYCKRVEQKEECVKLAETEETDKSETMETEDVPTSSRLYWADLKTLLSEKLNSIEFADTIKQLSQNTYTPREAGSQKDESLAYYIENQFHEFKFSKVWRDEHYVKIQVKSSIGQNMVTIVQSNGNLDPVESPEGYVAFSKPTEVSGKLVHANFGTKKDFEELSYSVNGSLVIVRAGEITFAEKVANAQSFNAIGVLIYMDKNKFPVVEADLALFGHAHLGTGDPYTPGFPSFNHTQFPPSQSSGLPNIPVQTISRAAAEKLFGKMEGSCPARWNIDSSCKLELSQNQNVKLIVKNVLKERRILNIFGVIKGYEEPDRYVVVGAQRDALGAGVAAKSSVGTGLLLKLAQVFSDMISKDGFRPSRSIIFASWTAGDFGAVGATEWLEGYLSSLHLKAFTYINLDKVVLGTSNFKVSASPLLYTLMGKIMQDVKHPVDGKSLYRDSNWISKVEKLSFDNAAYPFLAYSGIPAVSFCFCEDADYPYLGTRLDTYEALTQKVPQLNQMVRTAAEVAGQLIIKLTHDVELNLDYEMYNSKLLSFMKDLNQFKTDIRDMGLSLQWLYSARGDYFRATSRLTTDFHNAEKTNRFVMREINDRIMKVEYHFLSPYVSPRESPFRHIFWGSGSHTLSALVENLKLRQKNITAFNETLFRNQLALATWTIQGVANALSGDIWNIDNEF
UniProt P61619, sequence (whole entry, looked up): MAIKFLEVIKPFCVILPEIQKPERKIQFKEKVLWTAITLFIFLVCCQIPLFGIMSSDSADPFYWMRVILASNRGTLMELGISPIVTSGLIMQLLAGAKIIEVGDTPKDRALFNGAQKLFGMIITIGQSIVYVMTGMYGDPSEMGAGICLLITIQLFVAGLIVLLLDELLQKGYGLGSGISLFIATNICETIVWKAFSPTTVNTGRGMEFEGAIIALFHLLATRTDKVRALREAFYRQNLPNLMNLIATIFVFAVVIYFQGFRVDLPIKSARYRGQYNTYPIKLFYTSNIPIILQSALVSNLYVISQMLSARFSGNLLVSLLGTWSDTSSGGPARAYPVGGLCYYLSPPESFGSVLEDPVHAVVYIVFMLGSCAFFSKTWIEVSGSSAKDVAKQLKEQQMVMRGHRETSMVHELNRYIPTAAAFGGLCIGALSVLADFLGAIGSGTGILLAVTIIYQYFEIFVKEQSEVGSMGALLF

Structure (SMILES) | target or system | assay | test system | conditions | scale | quantity | result
CC(NC(=O)CCCc1ccc2ccc3cccc4ccc1c2c34)C(=O)NO (centres unmarked) | Histone deacetylase 8 (HDAC8, Homo sapiens, UniProt Q9BY41) | ITC | Hepes buffer | concentration not given, pH 7.5 | – | binding stoichiometry | 0.8
CCNC(=O)/C=C/c1cccc(Br)c1 | Sodium-dependent neutral amino acid transporter B(0)AT1 (SLC6A19, Homo sapiens, UniProt Q695T7) | inhibitor, L-[14C]leucine uptake | CHO-BC cells | 0.03 µM, 6 min, unit not given, added: GPNA 3 mM, JPH203 3 µM | reference: uninhibited cells | remaining transport activity | 0.972
CNc1ncc2c(/C=C/C(=O)N3CCC(OC)CC3)nn(Cc3cccc(C(F)(F)F)c3)c2n1 | Ephrin type-A receptor 4 (EPHA4, Homo sapiens, UniProt P54764) | kinase activity, inhibitor | – | 1 µM | reference: untreated control | remaining activity | 80%
O=C(/C=C/c1ccc(CN(CCO)CCc2c[nH]c3ccccc23)cc1)NO | OCI-Ly1 | – | – | 1 µM, 120 h | – | viability | 0.487%
C=CC(=O)N1CCC(C(=O)NCC(=O)N2CCN(c3nc(-c4cnc(N)nc4C(F)F)nc(N4CCOCC4)n3)CC2)CC1 | Cyclin-dependent kinase 14 (CDK14, Homo sapiens, UniProt O94921) | KINOMEscan | – | 1 µM | – | remaining binding | 100%
O=C(O)[C@@H]1CCCN1c1ncnc2[nH]cnc12 (racemic) | E3 SUMO-protein ligase PIAS1 (PIAS1, Homo sapiens, UniProt O75925) | binding, affinity selection mass spectrometry | – | – | reference: other proteins in batch | fold enrichment | 0.798
CC(=C/C(=O)O)/C=C/C=C(\C)C1C=C2C(C)(C)CCCC2(C)O1 (centres unmarked) | Rhodopsin (RHO, Homo sapiens, UniProt P08100, T17M) | ER retention, immunostaining co-localization, measured: opsin with calnexin | COS-7 transfected T17M | 1.00 µM | – | Pearson correlation coefficient | 0.71
Cc1cc(Nc2cc(N3CCN(C)CC3)nc(Sc3ccc(NC(=O)C4CC4)cc3)n2)[nH]n1 | Tyrosine-protein kinase Blk (Blk, Mus musculus, UniProt P16277) | kinase activity, KinaseProfiler | – | 0.03 µM, species mouse | reference: control | remaining activity | 88%
O=C1OC(c2ccccc2)=N/C1=C\c1ccc(O)c(O)c1 | Alpha-glucosidase MAL12 (MAL12, Saccharomyces cerevisiae S288c, UniProt P53341) | inhibitor, Lineweaver-Burk | – | 3200 ppm, added: pNPG substrate | – | Vmax | 0.046 mM/min
Nc1ncnc2c1ncn2[C@@H]1O[C@H](COP(=O)(O)OP(=O)(O)O)[C@@H](O)[C@H]1O | GUK1 (Homo sapiens, UniProt Q16774) | binding, isothermal titration calorimetry | – | molar ratio 1.319, fitted curve | – | ΔH | -0.898 kcal/mol
CC(C)C[C@@H]1NC(=O)[C@H](C(C)C)NC(=O)CNC(=O)[C@H](CC(N)=O)NC(=O)[C@@H]2CCCN2C(=O)[C@H](Cc2ccc(O)cc2)NC(=O)[C@H](CCCNC(=N)N)NC(=O)[C@H](C)NC(=O)[C@@H](NC(=O)[C@H](CCCCN)NC(=O)[C@@H]2CCCN2C(=O)[C@H](CO)NC(=O)[C@H](C)NC(=O)[C@@H](N)Cc2ccc(O)cc2)CSSC[C@@H](C(=O)N[C@H](C(N)=O)[C@@H](C)O)NC(=O)[C@H](C)NC1=O | Alpha-2-HS-glycoprotein, asialo (AHSG, Bos taurus, UniProt P12763) | binding, isothermal titration calorimetry | – | pH 7.0, 25 °C, added: asialofetuin | – | -ΔH | 6.16 kcal/mol
Cc1ccc(C(=O)Nc2ccc(S(=O)(=O)O)c3cc(S(=O)(=O)O)cc(S(=O)(=O)O)c23)cc1NC(=O)c1cccc(NC(=O)Nc2cccc(C(=O)Nc3cc(C(=O)Nc4ccc(S(=O)(=O)O)c5cc(S(=O)(=O)O)cc(S(=O)(=O)O)c45)ccc3C)c2)c1 | OCI-Ly1 | – | – | 1 µM, 120 h | – | viability | 166%
Cc1cccc(N2CC(C(=O)O)CC2=O)c1 (centres unmarked) | Coatomer subunit beta', WD repeat domain (Homo sapiens, UniProt P35606) | binding, affinity selection mass spectrometry | – | – | reference: other proteins in batch | log fold enrichment | 0.0262
CN(C)CCN(C)C(=O)c1ccc(NC(=O)Nc2ccc(-c3nc(N4CCOCC4)c4ccn(CC(F)(F)F)c4n3)cc2)cc1 | Oxidized purine nucleoside triphosphate hydrolase (NUDT1, Homo sapiens, UniProt P36639) | activator | – | 200 µM, screen | – | activity | > 200%
O=C(Nc1cnccc1Cl)N1CCN(Cc2ccc3c(c2)OC(F)(F)O3)CC1 | Fatty-acid amide hydrolase 1 (Faah, Mus musculus, UniProt O08914) | enzyme activity, inhibitor, ex vivo | rat, liver | oral, 8 h | – | ED50 | 3.7 mg/kg
O=C(COP(=O)(O)O)[C@@H](O)[C@H](O)[C@H](O)COP(=O)(O)O | Myb-binding protein 1A (Homo sapiens, UniProt Q9BQG0) | thermal proteome profiling, measured: MYBBP1A | HepG2 cell lysate | concentration not given, 57 over 37 °C | reference: compound over control | thermal stability ratio | 0.778 and 0.636 and 0.458
CCS(=O)(=O)c1nc(C2CC2)cc(C(F)(F)F)n1 | Exportin-1 (XPO1, Homo sapiens, UniProt O14980) | nuclear export, high content imaging | HeLa Kyoto reporter | 0.05 µM, 2 h | – | cells with nuclear reporter | 3.13% and 2.18% and 1.78%
NCCCCC(=O)O | Sodium- and chloride-dependent taurine transporter (SLC6A6, Homo sapiens, UniProt P31641, G62A) | binding, microscale thermophoresis | – | 244 nM, room temperature, added: 50 nM labelled protein | higher = more binding | normalised MST signal | 0.0377
O=C1CSC(=S)N1NC(=S)SSC(=S)NN1C(=O)CSC1=S | Tyrosine-protein phosphatase non-receptor type 22 (PTPN22, Homo sapiens, UniProt Q9Y2R2) | inhibitor, phospho-flow cytometry | – | 50 µM, added: TCR stimulation | reference: DMSO | positive cells | 20.1%

Structure (SMILES) | target or system | assay | test system | conditions | scale | quantity | result
c1ccc(OC[C@@H]2CN(CCN3CCc4ccccc43)CCO2)cc1 | 5-hydroxytryptamine receptor 4 (HTR4, Homo sapiens, UniProt Q13639) | radioligand binding | – | concentration not given | – | inhibition | 10.6%
C[S+](CC[C@H](N)C(=O)O)C[C@H]1O[C@@H](n2cnc3c(N)ncnc32)[C@H](O)[C@@H]1O (some centres unmarked) | O-methyltransferase (Sorghum bicolor, UniProt A0A1B6PFV1) | isothermal titration calorimetry | – | concentration not given, apo protein | – | ΔH of binding | -5.94 ± 0.742 kcal/mol
CC1(C)Cc2c(sc(NC(=O)c3ccn[nH]3)c2C(N)=O)C(C)(C)O1 | Cystic fibrosis transmembrane conductance regulator (CFTR, Homo sapiens, UniProt P13569, F312A) | single-channel patch clamp | – | 20 µM, added: ATP 2 mM | – | open time constant | 1080 ± 327 ms
CC(=O)N1CCN(c2cc(C=O)ccc2[N+](=O)[O-])CC1 | YWHAG/RELA, phospho-Ser45 p65 peptide (Homo sapiens, UniProt P61981+Q04206) | ternary complex formation, stabilizer, fluorescence anisotropy | – | – | – | EC50 | > 1000 µM
C=CC(=O)N1CCC(COCC(=O)N2CCN(c3nc(-c4cnc(N)nc4C(F)F)nc(N4CCOC[C@@H]4C)n3)CC2)CC1 | Serine/threonine-protein kinase Nek4 (NEK4, Homo sapiens, UniProt P51957) | KINOMEscan | – | 1 µM | – | remaining binding | 94%
Nc1ncnc2c1ncn2[C@@H]1O[C@H](COP(=O)(O)OP(=O)(O)OP(=O)(O)O)[C@@H](O)[C@H]1O | ATP-sensitive inward rectifier potassium channel 1 (Rattus norvegicus, UniProt P35560) | channel open probability, inhibitor, inside-out patch clamp | – | pH 7.4, Mg2+-free, 1.6 mM | – | Hill coefficient | ~3
Cc1ccc(N2CC(C(N)=O)CC2=O)cc1 (centres unmarked) | YTH domain-containing protein 1 (Homo sapiens, UniProt Q96MU7) | binding, affinity selection mass spectrometry | – | – | reference: other proteins in batch | log fold enrichment | 0
CC[C@@H]1[C@H](F)C(=O)N[C@@H]1COc1nccc2cc(C(N)=O)c(OC)cc12 | Calcium/calmodulin-dependent protein kinase type II subunit gamma (CAMK2G, Homo sapiens, UniProt Q13555) | ATP-site probe binding, ActivX profiling | THP-1 cell lysate | 0.2 mM, Lys1 site | – | inhibition | 10%
NCCCCCC(=O)O | Nuclear receptor subfamily 2 group C member 2 ligand-binding domain | SPR imaging | – | 600 nM | – | koff | 2.39e-05 s⁻¹
Nc1ncnc2c1ncn2[C@@H]1O[C@H](COP(=O)(O)CP(=O)(O)OP(=O)(O)O)[C@@H](O)[C@H]1O | P2X purinoceptor 1 (P2RX1, Homo sapiens, UniProt P51575, E122A) | saturation binding | – | 25 nM | – | specific binding | 192 corrected cpm and 276 corrected cpm and 178 corrected cpm
Nc1[nH]nc2nnc(-c3c(-c4ccccc4)nn4ccccc34)cc12 | Mitogen-activated protein kinase 3 (MAPK3, Homo sapiens, UniProt P27361) | ADP-Glo | – | 80 nM, added: MBP substrate | – | kinase activity | 90.3% and 114% and 62%
CC[C@H](C)[C@H](NC(=O)[C@H](CCC(=O)O)NC(=O)[C@H](CCC(=O)O)NC(=O)[C@@H]1CCCN1C(=O)[C@H](CC(=O)O)NC(=O)[C@H](C)NC(=O)[C@H](CCC(N)=O)NC(=O)[C@@H](NC(=O)[C@H](C)NC(=O)[C@@H](NC(=O)[C@H](CO)NC(=O)[C@@H](NC(=O)[C@H](CCCCN)NC(=O)[C@@H](N)Cc1ccc(O)cc1)[C@@H](C)O)C(C)C)[C@@H](C)O)C(=O)N[C@H](C(=O)N[C@H](C(=O)N[C@@H](CC(C)C)C(=O)N[C@@H](COP(=O)(O)O)C(=O)N[C@@H](CC(=O)O)C(=O)N[C@@H](COP(=O)(O)O)C(=O)N[C@@H](CC(=O)O)C(=O)O)C(C)C)[C@@H](C)CC | Small ubiquitin-related modifier 1 (Homo sapiens, UniProt P63165, C52A) | isothermal titration calorimetry | – | pH 7.4, SUMO1 construct | – | -TΔS | -9.89 ± 0.43 kcal/mol
CC[C@@H](C)[C@@H](NC(=O)[C@@H](Cc1ccc(O)cc1)NC(=O)[C@H]1CCCN1C(=O)[C@@H](CCCNC(=N)N)NC(=O)[C@H](N)Cc1c[nH]cn1)C(=O)N[C@H](C)C(=O)N[C@H](Cc1c[nH]cn1)C(=O)N[C@H](CCCNC(=N)N)C(=O)N[C@@H](C(=O)N[C@H](Cc1ccc(O)cc1)C(=O)N[C@H](CO)C(=O)N[C@H](Cc1ccccc1)C(N)=O)C(C)C | Transferrin receptor protein 1 (Tfrc, Mus musculus, UniProt Q62351) | flow cytometry | RAW264.7 | 6 h, pH 7.4, unit not given | reference: 0 h | surface expression | 0.983 and 1.02
O=C(O)c1cc(/N=N/c2ccc(O)c(C(=O)O)c2)ccc1O | Nuclear receptor subfamily 2 group C member 2 ligand-binding domain | SPR imaging | – | 600 nM | – | koff | 1.26e-07 s⁻¹
CC1=C(/C=C/C(C)=C/C=C/C(C)=C/C=O)C(C)(C)CCC1 | Rhodopsin (RHO, Bos taurus, UniProt P02699, G270F) | retinal entry, Trp FRET | lipid bicelles | 28 °C, G270F mutant | reference: wild-type rhodopsin | relative kon | 1 ± 0.13
COc1ccc2cc(CCC(C)=O)ccc2c1 | Nuclear receptor subfamily 2 group C member 2 ligand-binding domain | SPR imaging | – | 600 nM | – | koff | 9.34e-08 s⁻¹
COC1=C(OC)C(=O)C(CC=C(C)C)=C(C)C1=O | FSP1 F15A mutant | substrate | – | added: 100 µM co-substrate | – | Km | 9.48 ± 2.55 µM
C[C@H](N)C(=O)N[C@@H](CCCNC(=N)N)C(=O)N[C@H](C(=O)N[C@@H](CCCCN)C(=O)N[C@@H](CCC(N)=O)C(=O)N[C@H](C(=O)N[C@@H](C)C(=O)N[C@@H](CCCNC(=N)N)C(=O)N[C@@H](CCCCN)C(=O)N[C@@H](CO)C(=O)O)[C@@H](C)O)[C@@H](C)O | Transcriptional regulator ATRX (ATRX, Homo sapiens, UniProt P46100, F284Y/K251R) | isothermal titration calorimetry | – | pH 7.5, 25.0 °C | – | binding free energy | -7.43 kcal/mol
C=C1CN(S(=O)(=O)c2ccc(C)cc2)CCCN(Cc2ccccc2)CCCN(S(=O)(=O)c2ccc(C)cc2)C1 | Protein transport protein Sec61 subunit alpha isoform 1 (Homo sapiens, UniProt P61619) | Sec61-dependent translocation, inhibitor, measured: CD4 signal peptide-FLuc reporter | HEK293 | 0.0043 mM, 6 h | – | FLuc/RLuc ratio | 0.958

A few entries again:
Structure (SMILES) | target or system | assay | test system | conditions | scale | quantity | result
CC[C@@H](C)[C@@H](NC(=O)[C@@H](Cc1ccc(O)cc1)NC(=O)[C@H]1CCCN1C(=O)[C@@H](CCCNC(=N)N)NC(=O)[C@H](N)Cc1c[nH]cn1)C(=O)N[C@H](C)C(=O)N[C@H](Cc1c[nH]cn1)C(=O)N[C@H](CCCNC(=N)N)C(=O)N[C@@H](C(=O)N[C@H](Cc1ccc(O)cc1)C(=O)N[C@H](CO)C(=O)N[C@H](Cc1ccccc1)C(N)=O)C(C)C | Transferrin receptor protein 1 (Tfrc, Mus musculus, UniProt Q62351) | flow cytometry | RAW264.7 | 6 h, pH 7.4, unit not given | reference: 0 h | surface expression | 0.983 and 1.02
O=C(O)c1cc(/N=N/c2ccc(O)c(C(=O)O)c2)ccc1O | Nuclear receptor subfamily 2 group C member 2 ligand-binding domain | SPR imaging | – | 600 nM | – | koff | 1.26e-07 s⁻¹
CC1=C(/C=C/C(C)=C/C=C/C(C)=C/C=O)C(C)(C)CCC1 | Rhodopsin (RHO, Bos taurus, UniProt P02699, G270F) | retinal entry, Trp FRET | lipid bicelles | 28 °C, G270F mutant | reference: wild-type rhodopsin | relative kon | 1 ± 0.13
COc1ccc2cc(CCC(C)=O)ccc2c1 | Nuclear receptor subfamily 2 group C member 2 ligand-binding domain | SPR imaging | – | 600 nM | – | koff | 9.34e-08 s⁻¹
